Experimental data gathered from unrelated publications.
A part holds a random share of what one study measured.

Sample 1 — method: RNA Bind-n-Seq; molecule type: RNA; matrix: in vitro; tested at: 365 nM; baseline: no-protein control; direction: higher = stronger binding
Target: RNA binding protein fox-1 homolog 2, RRM domain, GST-SBP tag (RBFOX2, Homo sapiens, UniProt O43251-10, residues 100-194)
Setting: natural RNA segment, single round, ends assumed
Constant ends, left off below: GGGAGUUCUACAGUCCGACGAUC … UGGAAUUCUCGGGUGCCAA
Construct (chain): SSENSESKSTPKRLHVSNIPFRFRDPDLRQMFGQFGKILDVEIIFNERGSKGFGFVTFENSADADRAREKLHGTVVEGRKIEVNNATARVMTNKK
| Oligonucleotide | RBNS enrichment (R) |
| --- | --- |
| GCUGCUGGGGAUUCAGCUCUAGAGGUCACAGUAUCCUCGUUUGAAAGAUAAUUAAGAUCCCCCGUGGAGAAAGCAGUGACACAUUCACACAGCUGUUCCCUCGCAUGUUA | 11.9 |
| GGCUUUGGAAAAGAGCCCAGGGACUUAACGUGCUGCCUGUUGUACUCUGUCCCCUCAUGACUUUUUAGACACAGGGACUAGGACAUCGACCACCCUCUGCCCCUCCUGCA | 0.826 |
| GUGUCCUCUCUAUGUUUCAAAUAGCAAAUCUUGUUCAUUAAAAUACUUAUUAAAAGAUUUGAAUACCAAAUUUGGUGAUUUUUGUGAUUCCUGUGGCUACUUGGAUGUGG | 0.563 |
| AUGAAGGAUCUCAUUGGACGUCCUGUCAAUCAUUAAUCUACAUGCAGGCUUGUUCCCACACUACCUCUUUAAAGCGAUUCUUCCUAUGCUGGUCUGUUCAAUCCUGCCCU | 0.512 |
| AGCCUCCAAAACUAACCAGGUCCACCUAACACCCCCUCCCUCCCCUAAGAAGAUGGAUGUCCUCAAAAGAGAAGGAACAAACCUCCUUGGGAAUCCACAUUUUUUGGGGG | 0.434 |
| GAGAACAAUUGUUUAUUUUUUCUCUUUGGUUUUAGAUAUUAAUAAUAACAUUACUGGAAUUUUUUUCCAAAGAAACUAUUUUUAUAAUUCAAUAAUUUAACGUUUUCGUU | 0.855 |
| UCAGUACUACCAGCACUUUGCCAAAACUGUCAGAGGGACCCGUUUCUAGAGUGAGUCCCAGUUACAUCAAACAGUGACUUCCAGUUAUUCCCCAGUAAGUCUGAGUGGUU | 0.318 |
| CCUUAGGCUGGAUCCUGCUCCUCUGUGAGGAGUAAGGGUGCCUAAUAAAUACAUUUCUGCUUUAUUAGCUCUUGCUUUGGGCUUGUGGUUUCUGACUGGGUUCUUACUUC | 0.286 |
| UUGCAGCCCCCUCCCUCUCAGGUGUCCUGAGAUGCUGUUCCUGGGAGCCCCCUCAGAAAACUGCCUCACCUGAGACAAGUGCCUGCUGGACAGAGGUGUGAUUCCAGGCC | 0.394 |
| GCUCUCUAGGCCUGACUGCCACCAGAGUCCUCUUACCACCUGCAGUCUGCCACAAAGAUGCCAUAUCAACUCCUCUCUUCCCAAAACUAAACAGGAUCUAUCAUGGUGGC | 0.478 |
| GCUGCAGAGAAAUCAGUCUUACCCAGCAAGGGGAAGGCACACACAAGUUUGCAGAAAGUGUCUCAGAUCGCGUUUCUGAUUGAGUGAUCCGAGCUGGACUCCUCCUGUAG | 0.948 |
| UACCUGAAGUCAGUGGCCUGGAUCAUAGCCCUGGAUCAUUUCCCAGUCUGUCCUGUGCUGUGUGACCUUGGACAAGGCGCUUCAUCUCUCUGGGCCUCUAUUUCUCCAUU | 0.326 |

Sample 2 — method: universal PBM; molecule type: double-stranded DNA, one strand shown; matrix: in vitro; tested at: not given; direction: higher = stronger binding
Target: Sal-like protein 4, full length isoform B (SALL4, Homo sapiens, UniProt Q9UJQ4-2, residues 1-616)
Setting: 8-mer, flanks averaged, mean of replicates
Residues (chain): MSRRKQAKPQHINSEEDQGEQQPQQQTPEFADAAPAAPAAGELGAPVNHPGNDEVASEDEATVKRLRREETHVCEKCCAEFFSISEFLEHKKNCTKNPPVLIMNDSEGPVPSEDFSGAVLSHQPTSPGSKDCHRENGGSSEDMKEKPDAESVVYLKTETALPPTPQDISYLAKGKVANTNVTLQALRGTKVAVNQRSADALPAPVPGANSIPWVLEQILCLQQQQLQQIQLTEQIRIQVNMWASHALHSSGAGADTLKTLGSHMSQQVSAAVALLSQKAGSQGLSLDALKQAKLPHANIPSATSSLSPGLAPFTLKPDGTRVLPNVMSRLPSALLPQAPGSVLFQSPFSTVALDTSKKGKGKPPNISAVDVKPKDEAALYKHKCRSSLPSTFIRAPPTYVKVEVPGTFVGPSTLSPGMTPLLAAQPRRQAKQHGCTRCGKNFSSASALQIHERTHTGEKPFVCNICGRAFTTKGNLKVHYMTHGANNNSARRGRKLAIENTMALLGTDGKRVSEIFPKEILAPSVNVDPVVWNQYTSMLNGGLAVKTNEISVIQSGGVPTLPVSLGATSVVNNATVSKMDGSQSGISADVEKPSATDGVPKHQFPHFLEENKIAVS
| Oligonucleotide | E-score |
| --- | --- |
| AGCGCCGA | -0.199 |
| TGGTGACA | 0.0351 |
| CGTCTGCA | -0.0772 |
| ATGCGAAA | 0.227 |
| GACTAGAA | -0.0115 |
| CAGTTTGC | -0.139 |
| TCTGAAGA | -0.0774 |
| AGCTCGCG | -0.122 |
| GCCGATAC | -0.156 |
| GAATCCCC | -0.297 |
| GTAATACA | 0.261 |
| TAGAATGA | 0.172 |
| AACATGTC | 0.0406 |
| GGGCTAGA | -0.181 |
| GCGGAAGC | -0.266 |
| GGAATGAA | 0.0813 |
| GCGGCGCC | -0.4 |
| AAGGAACT | -0.00335 |
| GCAAGAAC | 0.0839 |
| TCCGACGA | 0.0437 |
| CATGCCAA | 0.0993 |
| GCTCTGTA | 0.031 |
| TTGATCAA | 0.191 |
| CAGACAGA | -0.00554 |
| CCCCGCTC | -0.273 |

Sample 3 — method: protein-binding microarray; molecule type: double-stranded DNA, one strand shown; matrix: in vitro; tested at: 940 nM top; setting: 60-bp whole probe; together with: salmon DNA 0.4 mg/ml; baseline: random background probes; direction: higher = stronger binding; constant ends, left off below: GCCTAGCAC … GTCTTGATTCGCTTGACGCTGCTG
Target: Interferon regulatory factor 5, full length, phosphomimetic (IRF5, Homo sapiens, UniProt Q13568-2, residues 1-514, S451D/S453D/S456D/S462D)
| Oligonucleotide | fitted relative affinity [z-score] |
| --- | --- |
| GACGGTTTCCACTTTCGGGACGTGCTA | 2.07 |
| GACGGTATCGCTCTCGGGACGTGCTAG | 4.32 |
| TCAGCTTTCTTTTTGCAACTGTGCTAG | 0.809 |
| TTAGAACTGAGTTTCGATTAGTGCTAG | 7.34 |
| GTTGCTCTCTCACCACCTTCGTGCTAG | 1.68 |
| GACGGTTTCCTTTCCCTTACGTGCTAG | 2.04 |
| TTAGTTTTCGACACTGGGTTAGTGCTA | 1.78 |
| GACGAACTAGGGTTTCGAGACGTGCTA | 0.587 |
| GGCGAACTGGGGTATCGAGACGTGCTA | 0.861 |
| GACGGTATCGACACTGGGGATGTGCTA | 3.98 |
| TTAGTACTGCTTATCCTTTAGTGCTAG | 0.408 |
| GGGCATTTGGAAAATGTAAACGTGCTA | -0.124 |
| TTAGGTATCATTTTCCTTTAGTGCTAG | 3.34 |
| TTAGATTTCAGTTTCGACTAGTGCTAG | 5.94 |
| TTAGGTTTCCTTTTCGTTTAGTGCTAG | 2.81 |
| GACGGACTGGGTATCGGGAAGTGCTAG | 0.737 |
| TCATCTCTGTCCCTGTTACTGTGCTAG | 1.85 |
| TGTTTTTCATTTTTTTTCATGTGCTAG | 2.32 |
| CCATCGATTTCTCTTTCCCAAGTGCTA | 1.64 |
| GACGATATCAGATTGGAGACGTGCTAG | -0.276 |
| TCATTTTTCCCTATTATACTGTGCTAG | 2 |

Sample 4 — method: protein binding microarray; molecule type: double-stranded DNA, one strand shown; matrix: in vitro; tested at: not given; baseline: not given; direction: higher = stronger binding
Target: Histone acetyltransferase KAT6A, winged helix 1, GST fusion (KAT6A, Homo sapiens, UniProt Q92794, residues 1-85)
Setting: 8-mer, flanks averaged, mean of 2 arrays, mostly near background
Target sequence (chain): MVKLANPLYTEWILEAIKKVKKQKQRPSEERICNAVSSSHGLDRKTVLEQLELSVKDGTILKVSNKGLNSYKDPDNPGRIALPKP
| Oligonucleotide | E-score |
| --- | --- |
| GAGAACTC | -0.145 |
| CTGAGTAC | -0.0813 |
| GAAACTTA | -0.111 |
| ATGGCCAA | -0.195 |
| ACGGACTG | 0.0561 |
| GGCAAAAA | 0.0814 |
| TGGGCGAA | -0.101 |
| GACAGGAC | -0.0551 |
| ATAATTGC | 0.227 |
| ACCAACTA | -0.0322 |
| AAGTCATT | -0.105 |
| TTCTGCAA | 0.0062 |
| ACCAATTG | -0.164 |
| AGTTTGAG | -0.263 |
| ATCTTCTA | -0.0677 |
| AATAGGGG | -0.0604 |
| ACGTTAGG | -0.0563 |
| CAAGTGTG | -0.124 |
| AGGAAGAG | -0.0755 |
| CGAATCCG | 0.259 |
| ATGGAAAG | -0.18 |
